Experimental data from different studies.
Numbered parts are unrelated; each lists some results of a single study. Substitutions count along the parent as printed.

Series 1 — target: CCND2, cyclin fold, Cln2 fusion (human); technique: yeast growth competition, sequencing; medium: yeast; notes: weak parent motif; reference: not given; direction: higher = stronger binding
Starting sequence: MICAL3 docking peptide (human); LQLRRQLSFSEDS; partner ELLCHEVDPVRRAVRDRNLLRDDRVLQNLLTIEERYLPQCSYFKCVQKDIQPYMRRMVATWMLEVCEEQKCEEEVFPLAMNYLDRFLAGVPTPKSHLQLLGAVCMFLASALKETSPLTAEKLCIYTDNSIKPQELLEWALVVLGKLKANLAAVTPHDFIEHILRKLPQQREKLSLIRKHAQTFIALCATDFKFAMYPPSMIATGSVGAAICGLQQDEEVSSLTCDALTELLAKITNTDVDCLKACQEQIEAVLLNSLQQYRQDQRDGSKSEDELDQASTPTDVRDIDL
Change | normalised enrichment score
S10L | 0.216
Q6A | 0.196
Q6D | -0.0203

Series 2 — technique: universal PBM; molecule type: double-stranded DNA, one strand shown; medium: in vitro; concentration: 600 nM; direction: higher = stronger binding
Target: Sal-like protein 4, full length isoform A (SALL4, Homo sapiens, UniProt Q9UJQ4, residues 1-1053)
UniProt Q9UJQ4, sequence (whole entry, looked up): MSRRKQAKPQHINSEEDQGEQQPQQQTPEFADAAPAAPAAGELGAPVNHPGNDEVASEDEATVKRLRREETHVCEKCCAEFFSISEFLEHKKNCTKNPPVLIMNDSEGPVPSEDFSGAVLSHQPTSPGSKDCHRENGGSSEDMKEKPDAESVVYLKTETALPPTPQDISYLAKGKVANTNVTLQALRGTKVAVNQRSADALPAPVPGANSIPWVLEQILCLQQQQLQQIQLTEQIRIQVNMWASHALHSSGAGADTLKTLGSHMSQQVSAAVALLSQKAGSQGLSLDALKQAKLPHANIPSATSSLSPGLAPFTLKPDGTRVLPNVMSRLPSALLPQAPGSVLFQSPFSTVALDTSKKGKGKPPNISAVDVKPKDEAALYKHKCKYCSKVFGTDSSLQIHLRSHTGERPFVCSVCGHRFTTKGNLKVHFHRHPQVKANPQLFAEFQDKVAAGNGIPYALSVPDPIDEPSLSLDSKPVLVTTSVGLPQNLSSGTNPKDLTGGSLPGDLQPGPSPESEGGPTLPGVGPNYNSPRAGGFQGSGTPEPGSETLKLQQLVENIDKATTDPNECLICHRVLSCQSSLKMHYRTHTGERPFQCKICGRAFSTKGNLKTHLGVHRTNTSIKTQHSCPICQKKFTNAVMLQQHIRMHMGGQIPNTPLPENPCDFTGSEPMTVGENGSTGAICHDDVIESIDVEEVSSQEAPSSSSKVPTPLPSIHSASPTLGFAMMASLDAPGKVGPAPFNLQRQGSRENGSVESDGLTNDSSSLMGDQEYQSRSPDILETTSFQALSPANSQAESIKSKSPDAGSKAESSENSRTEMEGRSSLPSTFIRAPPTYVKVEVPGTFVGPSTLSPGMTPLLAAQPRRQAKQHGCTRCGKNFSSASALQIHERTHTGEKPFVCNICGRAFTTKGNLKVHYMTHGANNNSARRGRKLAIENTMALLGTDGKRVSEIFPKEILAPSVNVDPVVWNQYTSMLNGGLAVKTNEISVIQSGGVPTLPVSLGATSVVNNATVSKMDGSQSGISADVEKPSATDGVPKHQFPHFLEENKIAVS
Notes: 8-mer, flanks averaged, mean of replicates
Strand | E-score
TGCATCCA | -0.0432
ACGACCGT | -0.272
GAAAAGGA | 0.1
AACGCAGA | 0.0413
GGCACCTA | -0.256
ACGACCCA | -0.142
GGAGTCTA | -0.0961

Series 3 — technique: RNA Bind-n-Seq; molecule type: RNA; medium: in vitro; concentration: 365 nM; reference: no-protein control; direction: higher = stronger binding
Target: RNA binding protein fox-1 homolog 2, RRM domain, GST-SBP tag (RBFOX2, Homo sapiens, UniProt O43251-10, residues 100-194)
Notes: natural RNA segment, single round, ends assumed
Strand | RBNS enrichment (R)
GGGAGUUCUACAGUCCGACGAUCUCCAGAGGGACAGGGUGGACCCCCUGAGUCAACUGGAGCAAGAAGGAAGGAGGCAGACUGAUGGCGAUUCCCUCUCACCCGGGACUCUCCCCCUUUCAAGGAAAGUGAACUGGAAUUCUCGGGUGCCAA | 0.524
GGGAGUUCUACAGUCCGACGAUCUUGAAUGGGCCCACAGUGUUUAUGUACUCUUAACAACUCACAGAAUAAUACAUGUUCACUUUAUUUUGUAAAAUUGGGUUGAGAGGAAACUAAUGGAGUUUCAUUGUAACUGGAAUUCUCGGGUGCCAA | 1.28
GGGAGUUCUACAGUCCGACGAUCAUGGAUAUAGGCUAUUCUCUGGGAUGAGUGUCAUUUCAAUGCUUUAUAAAUCCAUGAAGCUGCUUGUCUCAUAAAGUAGAACUGAUACAAAUUUUGGUUGGAUAUAUAGAUGGAAUUCUCGGGUGCCAA | 0.905
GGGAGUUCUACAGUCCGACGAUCCCCAUUCCUGCUGCAUCCUGCCUGUGCCCCACAGCAAGCUUUCCACCCCCCAGGGAGGACCCAGCCCUGGCUUUGGGGCUAUUCUGCAGGGUUGUCUAGAGGAGUGGGGAUGGAAUUCUCGGGUGCCAA | 0.557
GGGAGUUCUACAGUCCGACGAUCGGCCACUUGGCCUCCACUUGGUUUCUUCCCCACAUCUCUCACUUGGGCUGGGAACUGACAGAGGAGCCUGCUGGGCUAGGAGUGGGGGACACUGGCCUCUUAGUGCCCGGUGGAAUUCUCGGGUGCCAA | 0.372

Further values, each from its own experiment
Molecule | target | assay | test system | conditions | scale | endpoint | result
PhoQ, residues 284 288 289 292 302 303 TTSMTC | PhoP, residues 12 14 15 18 19 SEGLL (Escherichia coli, UniProt P23836) | Sort-seq, refers to: YFP reporter | E. coli | PhoQ-PhoP variant library, together with: 10 µM Mg2+ | reference: high Mg2+ state, higher = stronger signaling | fold induction | 19.7

Repeated from above (series 3):
Strand | RBNS enrichment (R)
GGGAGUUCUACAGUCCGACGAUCAUGGAUAUAGGCUAUUCUCUGGGAUGAGUGUCAUUUCAAUGCUUUAUAAAUCCAUGAAGCUGCUUGUCUCAUAAAGUAGAACUGAUACAAAUUUUGGUUGGAUAUAUAGAUGGAAUUCUCGGGUGCCAA | 0.905
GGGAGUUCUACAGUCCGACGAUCCCCAUUCCUGCUGCAUCCUGCCUGUGCCCCACAGCAAGCUUUCCACCCCCCAGGGAGGACCCAGCCCUGGCUUUGGGGCUAUUCUGCAGGGUUGUCUAGAGGAGUGGGGAUGGAAUUCUCGGGUGCCAA | 0.557
